# Measured values gathered from unrelated publications.
# Protocols differ between the studies behind these lines. Numbers after ± are the reported error.
Compound,cell line,effect on,technique,medium,time,notes,IC50
CCCCCCCCCc1ccc(O)cc1,AC16 cardiomyocytes,mitochondrial membrane potential decrease,,,1 h,,4.35 ± 0.29 µM
Cc1cc(N(CCOS(C)(=O)=O)CCOS(C)(=O)=O)ccc1C(=O)O,SN12K1,cell growth,,,,,19.7 µg/mL
CN1CCN(S(=O)(=O)c2cc([N+](=O)[O-])ccc2N(CCOS(C)(=O)=O)CCOS(C)(=O)=O)CC1,HCT-116 overexpressing AKR1C4,cell growth,sulforhodamine B,,96 h,,9.4 µM
O=C(NOC[C@H](O)CO)c1ccc(F)c(F)c1Nc1ccc(I)cc1F,MPNST-724,cell confluence,,,,,0.279 µM
O=C(Oc1ccc(F)cc1)[c-]1cccc1.[Fe+2].c1cc[cH-]c1,MCF-10A,cell growth,MTT,,72 h,,no effect
Fc1ccc2c(-c3nc(Cc4ccccc4)cs3)nn(Cc3ccc(Cl)cc3Cl)c2c1,BJ fibroblasts,cytotoxicity,,,48 h,,289 µM
N.N.[Cl][Pt][Cl],NAMALWA,cell proliferation,CellTiter-Glo,,72 h,,0.29 µM
C[C@H]1COCCN1c1nc(NCc2cccnc2C(F)(F)F)c2cccnc2n1,cardiomyocytes,calcium signalling,,,,in vitro toxicology,> 100 µM
N.N.[Cl][Pt][Cl],SGC-7901 resistant to compound,viability,CCK-8,,,glutamine deficient,20.8 µM
Cc1cc(C)c(-n2ccn(-c3c(C)cc(C)cc3C)c2=[Se])c(C)c1,H157 lung carcinoma cells,cell viability,MTT,,72 h,,> 10 µM
COc1c(C)c2c(c(O)c1C/C=C(\C)CCC(=O)O)C(=O)OC2,PANC-1,cell proliferation,,pancreas cancer,,,2.63 µM
CC[C@H](C)[C@H](NC(=O)[C@H](CCCCN)NC(=O)[C@@H](NC(=O)[C@H](CCCNC(=N)N)NC(=O)[C@@H](NC(=O)[C@@H](CCCNC(=N)N)NC(=O)[C@@H](CCCNC(=N)N)NC(=O)[C@@H](CCCNC(=N)N)NC(=O)[C@@H](CCCNC(=N)N)NC(=O)[C@@H](CCCNC(=N)N)NC(=O)[C@H](N)CCCNC(=N)N)[C@@H](C)O)[C@@H](C)O)C(=O)N[C@@H](CC(=O)O)C(=O)N[C@@H](Cc1c[nH]c2ccccc12)C(=O)NC(C)(C)C(=O)N[C@@H](CCCCN)C(=O)N[C@H](C(=O)N[C@@H](CC(C)C)C(=O)NC(C)(C)C(=O)N[C@@H](CCCCN)C(=O)NCCCCCC(=O)NCCCC[C@H](NC(=O)CCCCCNC(=O)[C@H](CCCCN)NC(=O)C(C)(C)NC(=O)[C@H](CC(C)C)NC(=O)[C@@H](NC(=O)[C@H](CCCCN)NC(=O)C(C)(C)NC(=O)[C@H](Cc1c[nH]c2ccccc12)NC(=O)[C@H](CC(=O)O)NC(=O)[C@@H](NC(=O)[C@H](CCCCN)NC(=O)[C@@H](NC(=O)[C@H](CCCNC(=N)N)NC(=O)[C@@H](NC(=O)[C@@H](CCCNC(=N)N)NC(=O)[C@@H](CCCNC(=N)N)NC(=O)[C@@H](CCCNC(=N)N)NC(=O)[C@@H](CCCNC(=N)N)NC(=O)[C@@H](CCCNC(=N)N)NC(=O)[C@H](N)CCCNC(=N)N)[C@@H](C)O)[C@@H](C)O)[C@@H](C)CC)[C@@H](C)CC)C(N)=O)[C@@H](C)CC,SK-MEL-5,,,,,,~5 µM
N.N.[Cl][Pt][Cl],MCF-10A,cell viability,,,48 h,light irradiation 2.5 min,35.6 ± 2.16 µM

# A few entries again:
Compound,cell line,effect on,technique,medium,time,notes,IC50
N.N.[Cl][Pt][Cl],NAMALWA,cell proliferation,CellTiter-Glo,,72 h,,0.29 µM
C[C@H]1COCCN1c1nc(NCc2cccnc2C(F)(F)F)c2cccnc2n1,cardiomyocytes,calcium signalling,,,,in vitro toxicology,> 100 µM
